Results collected from several papers.
Parts stem from different laboratories: compare values within a part only. Changes are numbered by the printed parent chain.

Study 1
Target: CREBRF, bZIP domain (human)
Method: DHFR protein complementation
Sample: yeast
Setting: single substitutions, most at no-binding floor
Reference: wild-type JUN-FOS pair
Reading: higher = stronger binding
Starting sequence: JUN, bZIP domain (human); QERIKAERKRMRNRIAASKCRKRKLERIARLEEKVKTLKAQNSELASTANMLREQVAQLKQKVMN; partner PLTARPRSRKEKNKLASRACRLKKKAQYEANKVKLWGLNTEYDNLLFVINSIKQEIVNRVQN
Change	binding fitness
A29D	-1.18 natural log
A29G	-1.48 natural log
L31R	-1.5 natural log
I28V	-1.54 natural log
K34G	-1.47 natural log
E54Y	-1.5 natural log
L59W	-1.63 natural log
R30D	-1.16 natural log
L59S	-1.42 natural log
Q55M	-1.32 natural log
T37K	-1.3 natural log
E32T	-1.35 natural log
M51C	-1.46 natural log
I28Q	-1.33 natural log
A46M	-1.44 natural log
V35Y	-1.61 natural log
E33R	-1.3 natural log
A46N	-1.4 natural log
Q58R	-1.38 natural log
K36L	-1.49 natural log
R53G	-1.47 natural log
I28T	-1.42 natural log

Study 2
Target: ABI1, truncated, D143A, DHFR fusion (Arabidopsis thaliana)
Method: DHFR PCA, deep sequencing
Sample: yeast
Setting: methotrexate growth selection, single substitutions
With: (+)-ABA 200 µM
Reference: wild-type fitted maximum
Reading: higher = stronger binding
Starting sequence: PYL1, truncated, DHFR fusion (Arabidopsis thaliana); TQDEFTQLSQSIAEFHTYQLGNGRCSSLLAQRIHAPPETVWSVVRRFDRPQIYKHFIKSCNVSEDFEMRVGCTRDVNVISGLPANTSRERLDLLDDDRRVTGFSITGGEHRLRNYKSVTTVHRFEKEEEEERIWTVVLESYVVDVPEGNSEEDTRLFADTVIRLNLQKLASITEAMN
Change	relative binding score [%]
L166E	5.02
V62C	93.7
T154P	11.3
I79F	105
L29M	87.1
T1E	93.9
L169Y	1.66
E38H	89
T1C	96.1
G148D	86.4
E38Q	84.3
N177Q	93.6
E89H	-16.4
L93E	89.4
G108R	22.7

Study 3
Target: RNA binding protein fox-1 homolog 2, RRM domain, GST-SBP tag (RBFOX2, Homo sapiens, UniProt O43251-10, residues 100-194)
Method: RNA Bind-n-Seq
Form: RNA
Sample: in vitro
Tested at: 365 nM
Setting: natural RNA segment, single round, ends assumed
Reference: no-protein control
Reading: higher = stronger binding
Construct (chain): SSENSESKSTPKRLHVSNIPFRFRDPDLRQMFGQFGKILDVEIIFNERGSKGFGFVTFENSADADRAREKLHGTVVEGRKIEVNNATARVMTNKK
Oligonucleotide	RBNS enrichment (R)
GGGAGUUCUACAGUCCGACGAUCGUGUGUAUAUGUAAUUUUCUUAAUGUCUUAAGAAAUCUGGCUAUAUAAGUUCCACUGUACAAUGUCCUUUUCAGGUGGAAUUUUCUCUAUUGCUUUGAUAAACAGAGUUGUGGAAUUCUCGGGUGCCAA	0.646
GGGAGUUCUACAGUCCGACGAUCCUCUCCCUCCUCCGGCUGUGACUGGCAGAUUGUCACCACAGUAGAGAACCUUUCCCCUGUACUUUUCUUUGGCCCCAUUGUUUAAAAGGGGAAAAUGGCCUUUUUAAACCUGGAAUUCUCGGGUGCCAA	1.1
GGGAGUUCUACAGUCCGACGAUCUCCCUACCCUCACAAAAGUGGCCACGUUGCAAUAAAAAUUGUGGCAGAUUACAGAAUGUUGCCUUGUUUUCCUUGGAAAUUUUGCAAAUUGUUAUGUGAAAUUUUAGGGUUGGAAUUCUCGGGUGCCAA	0.958
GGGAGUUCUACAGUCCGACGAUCUGCUUUUGAUGUUGUGUUACUGUACACAGAAGUGUGUGCACUGAGGCUCUGCGUGUGGUCCGUAUGGAAAGCCUGGUAGCCCUGCGAGUUAAGUACUGCUUCCAUUCAUUUGGAAUUCUCGGGUGCCAA	1.49
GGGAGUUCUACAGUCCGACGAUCAUGGUUCCCCACUCUAAUUCCAUUACUGAAGAUUAAGCCCAGGCAGGGACUUGCUCAUUCUAGGCAAGUGCUCUACCACUGAGCGGGAGUCACCCCUACUUCCUGGAUAGUGGAAUUCUCGGGUGCCAA	0.336
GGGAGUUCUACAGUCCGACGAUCUCACCUGAGCACAUGGUCUACUGCUUAAGGGCAUGGGGGAGGGGACCGCCCCUCUUGAGGAAGCAGAAUUAACAUCAGAAUACAAACAGCAUCAGGGCAACCCACUUCAGUGGAAUUCUCGGGUGCCAA	2.2
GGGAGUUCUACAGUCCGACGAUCCUAACCAGGCUCUUCCUCGGGGCAGGGAGGUCCUGGCUUACUCUGUAUUGAGACAGACCCGACAAGUUCCAUGGCAUUAAAUCCAGUUCUGCGUUGGCUGGGGCAGAGCUUGGAAUUCUCGGGUGCCAA	0.82
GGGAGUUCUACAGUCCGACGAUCUUCUUGUUGUCCCUCCCAUUAGCCAGGGCGGAGACUGUCUGAGCUGUGCAGGAGGAGGGUUGCUAGUAGGUUCUGCUUCUGCUUCUCUCUGCUCCACUGUCUGCAGCCCAUGGAAUUCUCGGGUGCCAA	0.461

Study 4
Target: Histone acetyltransferase KAT6A, both winged helices, GST fusion (KAT6A, Homo sapiens, UniProt Q92794, residues 1-181)
Method: protein binding microarray
Form: double-stranded DNA, one strand shown
Sample: in vitro
Tested at: not given
Setting: 8-mer, flanks averaged, mean of 2 arrays, mostly near background
Reference: not given
Reading: higher = stronger binding
Target sequence (chain): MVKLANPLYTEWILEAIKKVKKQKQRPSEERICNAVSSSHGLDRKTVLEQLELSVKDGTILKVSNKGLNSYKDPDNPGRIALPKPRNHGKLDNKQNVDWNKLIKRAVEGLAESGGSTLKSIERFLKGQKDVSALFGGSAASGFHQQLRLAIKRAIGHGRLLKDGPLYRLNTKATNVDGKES
Oligonucleotide	E-score
GTCAACGA	-0.0842
ACACTCAT	-0.076
ATAAGCAC	0.0709
CATTGCAG	-0.125
AACGCAAA	0.149
CGAGCTCC	-0.00853
CACCTGGC	-0.134
AGTCGTTG	-0.077
CAGTCTCC	-0.0103
TAGGTGCA	-0.286
ATTCCAAG	-0.168
AGTGTCGG	0.154
CATTCTGC	-0.0184
CCCTCGTA	0.0248
ACACGGGG	0.201
AAGAAGTC	-0.0923

Study 5
Target: CCNB2, cyclin fold, Cln2 fusion (human)
Method: yeast growth competition, sequencing
Sample: yeast
Setting: strong parent motif
Reference: not given
Reading: higher = stronger binding
Starting sequence: BRCA2 docking peptide (human); PSIKRNLLNEFDR
Change	normalised enrichment score
PSIKRNLLNEFKR [D12K]	1.77
PSIKRNLLNEFAR [D12A]	3.25
PSIKRNLLNEFPR [D12P]	1.14
PSIKRHLLNEFDR [N6H]	0.609
PSKKRNLLNEFDR [I3K]	0.565
PSPKRNLLNEFDR [I3P]	1.7
PSLKRNLLNEFDR [I3L]	3.27
PSIKRNDLNEFDR [L7D]	0.0208
PSIKRNLLNCFDR [E10C]	0.457
PSIKRWLLNEFDR [N6W]	0.307
PSIKRNSLNEFDR [L7S]	-0.65
PSIKRNLLNEMDR [F11M]	0.984
PSIKRNLLNRFDR [E10R]	0.509
PSIKRNLLNEFDC [R13C]	3.75
PYIKRNLLNEFDR [S2Y]	2.46
PSIKRNLLNEFYR [D12Y]	2.25
PSIKRNLLNEFDE [R13E]	4.16
PSIKNNLLNEFDR [R5N]	0.0721

Other studies, line by line
Substance	target	test	test system	conditions	scale	endpoint	result
PhoQ, residues 284 288 289 292 302 303 SSTLLI	PhoP, residues 12 14 15 18 19 LHATL (Escherichia coli, UniProt P23836)	Sort-seq, refers to: YFP reporter	E. coli	PhoQ-PhoP variant library, with: 10 µM Mg2+	reference: high Mg2+ state, higher = stronger signaling	fold induction	2.22

Excerpt of the above (study 4):
Oligonucleotide	E-score
AACGCAAA	0.149
CGAGCTCC	-0.00853
CACCTGGC	-0.134
AGTCGTTG	-0.077
CAGTCTCC	-0.0103
TAGGTGCA	-0.286
ATTCCAAG	-0.168
AGTGTCGG	0.154
CATTCTGC	-0.0184
